Measured values from different studies.
Each line is one published result; not all experiments were run side by side. “And” joins repeats or separate records; there may be more than shown. Numbers after ± are the reported error.

Structure (SMILES) | cell line | assay | test system | setting | how to read | measurement | value
CCN(CC)c1ccc(C=NNC(=O)CSc2nc3ccccc3c(=O)n2Cc2ccc(S(N)(=O)=O)cc2)c(O)c1 | RXF 393 | NCI five-dose screen | – | – | – | CC50 | > 100 µM
CS(=O)(=O)c1ccc(-c2nnc(/C=C/c3nnc(-c4ccc(C#N)cc4)o3)n2-c2ccccc2Cl)nc1 | Apc Q1405X mutant organoids | organoid viability, AlamarBlue | mouse small intestinal organoids | 6 days, Tnks genotype Tnks+/+ | – | Hill slope | -2.76
C[C@@H]1O[C@@H](O[C@@H]2C=C3CC[C@@H]4[C@H](CC[C@]5(C)[C@@H](c6ccc(=O)oc6)CC[C@]45O)[C@@]3(C)CC2)[C@H](O)[C@H](O)[C@H]1O | human iPSC-derived cardiomyocytes | MyBP-C/MYH ratio, plate-normalised SD score | – | concentration not given, primary screen | direction not given | activity score | 14.1
Oc1ccc(C(c2ccc(O)cc2)(C(F)(F)F)C(F)(F)F)cc1 | HepG2 spheroids | Hoechst flow cytometry | – | 10 µM, 24 h | – | G2 phase cells | 21.7 ± 5.2%
N.N.[Cl][Pt][Cl] | human foreskin fibroblasts CRL-4001 | viability, MTT | – | 72 h | – | EC50 | 26 ± 10.8 µM
Cc1sc2c(c1C)C(c1ccc(Cl)cc1)=N[C@@H](CC(N)=O)c1nnc(C)n1-2 | HBL-1 | – | – | 0.1 µM, 120 h | – | viability | 61.1%
Nc1ncnc2c1ncn2[C@@H]1O[C@@H]2COP(=O)(O)O[C@H]3[C@@H](O)[C@H](n4cnc5c(=O)[nH]cnc54)O[C@@H]3COP(=O)(O)O[C@H]2[C@H]1O | HFF-1 | RNA sequencing Reactome analysis, measured: Reactome R-HSA-9701193 defective HRR (PALB2 loss) | – | together with: West Nile virus infection | relative to: West Nile virus infected cells, upregulated pathway | pathway fold enrichment | 7.67
Cn1cc(C2=C(c3cn(C4CCN(Cc5ccccn5)CC4)c4ccccc34)C(=O)NC2=O)c2ccccc21 | iCell Cardiomyocytes (hiPSC-derived) | xCELLigence Cardio impedance | – | concentration not given, 2 h | relative to: control | beat rate | 59.2%
CC(C)(C)C(=O)C(Oc1ccc(Cl)cc1)n1cncn1 (centres unmarked) | human iPSC-derived cardiomyocytes | MyBP-C/MYH ratio, plate-normalised SD score | – | concentration not given, primary screen | direction not given | activity score | 3.6
CC[C@H](C)[C@H](NC(=O)[C@H](CCCCN)NC(=O)[C@H](CCCCN)NC(=O)[C@H](Cc1ccccc1)NC(=O)[C@H](CC(C)C)NC(=O)[C@H](CCCCN)NC(=O)[C@H](Cc1c[nH]c2ccccc12)NC(=O)[C@@H](N)CCCCN)C(=O)N[C@@H](Cc1ccccc1)C(=O)N[C@@H](CCCCN)C(=O)N[C@@H](CCCNC(=N)N)C(=O)N[C@H](C(=O)N[C@H](C(=O)N[C@@H](CCC(N)=O)C(=O)N[C@@H](CCCNC(=N)N)C(=O)N[C@H](C(=O)N[C@@H](CCCCN)C(=O)N[C@@H](CC(=O)O)C(=O)N[C@@H](Cc1ccccc1)C(=O)N[C@@H](CC(C)C)C(=O)N[C@@H](CCCNC(=N)N)C(=O)N[C@@H](CS)C(N)=O)[C@@H](C)CC)C(C)C)[C@@H](C)CC | human red blood cells | – | – | pH 5.5 | relative to: Triton X-100 | EC50 | 13 µM
CC(C)=CCC[C@](C)(O)[C@H]1CC[C@]2(C)[C@@H]1[C@H](O)C[C@@H]1[C@@]3(C)CC[C@H](O)C(C)(C)[C@@H]3[C@@H](O[C@@H]3O[C@H](CO)[C@@H](O)[C@H](O)[C@H]3O)C[C@]12C | HepG2 | cell viability, CCK-8 | – | 20 µM | higher = more viable cells | optical density | 1.16 a.u. and 1.2 a.u. and 1 a.u. and 1.12 a.u. and 1.17 a.u.
N[C@@H]1C[C@H]1c1ccccc1 | HBL-1 | – | – | 0.5 µM, 120 h | – | viability | 131%
COc1cc(CCC[P+](c2ccccc2)(c2ccccc2)c2ccccc2)c(OC)c2c1OCO2.[I-] | RXF 393 | SRB | – | – | – | TGI | -5.07 log M
O=C1NC(=O)c2c1c1c3ccccc3n3c1c1c2c2ccccc2n1C1CCC3O1 | HeLa expressing Ub(G76V)-GFP | Ub(G76V)-GFP degradation, cycloheximide chase | – | 12 µM | – | inhibition | 100%
CC(C)[C@H](N)C(=O)N1CCC[C@H]1B(O)O | EA.hy926 CASP1 knockout | CellTiter-Glo | – | concentration not given | – | viability | 100% and 98%
Cc1cc(C(C)(C)c2ccc(O)c(C)c2)ccc1O | HepG2 spheroids | Hoechst flow cytometry | – | 10 µM, 96 h | – | S phase cells | 9.2 ± 1.92%
Cc1nn(-c2nc3c(F)cc(F)cc3s2)c(O)c1C(c1ccc(C(F)(F)F)cc1)c1c(C)nn(-c2nc3c(F)cc(F)cc3s2)c1O | RAW-ISG | CCK-8 | – | 100 µM | – | viability | 15.4% and 7.29% and 14.9% and 6.59%
COc1c(CCC[P+](c2ccccc2)(c2ccccc2)c2ccccc2)cc2c(c1OC)OCO2.[I-] | NCI-H23 | SRB | – | – | – | GI50 | -5.66 log M
O=c1cc(-c2ccccc2)oc2c(O)c(O)ccc12 | induced SH-SY5Y Aβ-GFP cells | – | – | 5 µM | – | neurite branch number | 1.8 to 2.1

Structure (SMILES) | cell line | assay | test system | setting | how to read | measurement | value
Cn1cncc1C1=CN(c2ncnc3[nH]cnc23)CCS1 | NCI-H23 | – | – | lung cancer | – | CC50 | > 200 µM
COc1ccc([C@H]2c3[nH]c4ccc(Cl)cc4c3CCN2C(=O)Oc2ccc(Cl)cc2)cc1 | HUVEC and Th2 blast co-culture | BioMAP /TH2, measured: soluble IL-17 | – | 0.1 µM | – | inhibition | 23%
CN1CCN(S(=O)(=O)c2cc([N+](=O)[O-])ccc2N(CCOS(C)(=O)=O)CCOS(C)(=O)=O)CC1 | HCT-116 wild-type | cell growth, sulforhodamine B | – | 96 h | – | IC50 | 5.5 µM
Oc1ccc(C2(c3ccc(O)cc3)c3ccccc3-c3ccccc32)cc1 | HepG2 spheroids | MTS | – | 160 µM, 24 h | relative to: solvent control | metabolic activity decrease | ~38%
COc1c(C)c2c(c(O)c1C/C=C(\C)CCC(=O)O)C(=O)OC2 | T24 | cell proliferation | bladder cancer | – | – | IC50 | 1 µM
C[CH2][Hg][S]c1ccccc1C(=O)[O-].[Na+] | BT-16 | cell viability, MTT | – | 10 µM, 72 h | – | inhibition | 94.1%
Cc1cnc2ccc3c(nc(N)n3C)c2n1 | BALB/c 3T3 | – | – | 0.5 µM | relative to: solvent control | relative colony forming efficiency | 102 ± 6%
CC[C@H](C)[C@H](NC(=O)[C@H](CCCCN)NC(=O)[C@H](CCCCN)NC(=O)[C@@H](NC(=O)[C@@H](NC(=O)[C@H](CC(=O)O)NC(=O)[C@H](Cc1ccccc1)NC(=O)[C@H](CC(C)C)NC(=O)CN)[C@@H](C)CC)[C@@H](C)CC)C(=O)N[C@@H](C)C(=O)N[C@@H](CCC(=O)O)C(=O)N[C@@H](CO)C(=O)N[C@@H](Cc1ccccc1)C(=O)N[C@@H](CS)C(N)=O | human red blood cells | – | – | pH 7.4 | relative to: Triton X-100 | EC50 | 98 µM
c1ccc([C@@H]2C[C@H]2NC2CCNCC2)cc1 | HBL-1 | – | – | 0.1 µM, 120 h | – | viability | 124%
COc1ccc2c(c1)[nH]c1c(C)nccc12 | DU-145 | bisulfite pyrosequencing, measured: RASSF1A promoter CpG site 16 | – | 10 µM, 16 h | – | CpG methylation | 87.5%
Nc1ncc(-c2nc(N3CCOCC3)nc(N3CCOCC3)n2)c(C(F)F)n1 | U-2 OS | cell growth | – | 72 h | – | GI50 | 0.203 µM
CCCCCCCCCc1ccc(O)cc1 | human iPSC-derived cardiomyocytes | MyBP-C/MYH ratio, plate-normalised SD score | – | concentration not given, primary screen | direction not given | activity score | 8.8
O=C1N(Cc2ccccc2Cl)c2ccccc2C12NN=C(c1ccccc1)S2 (centres unmarked) | MDA-MB-468 | gene expression array, measured: PHIP mRNA | – | 10 µM, 12 h | relative to: untreated, down | fold change | 1.56
O=C1CCP(=S)(c2ccccc2)CC1 | SW480 and SW-620 | trypan blue | – | concentration not given, 72 h, compound at IC50 | relative to: control | viability | no effect
CC(C)N1CCC(NC2CCN(c3cccc(-c4cc5cc(F)ccc5[nH]4)c3)CC2)CC1 | U-251 | – | – | – | – | CC50 | 6.11 µM
c1ccc2c(c1)OCC(C1=NCCN1)O2 (centres unmarked) | human iPSC-derived cardiomyocytes | MyBP-C/MYH ratio, plate-normalised SD score | – | concentration not given, primary screen | direction not given | activity score | 5.7
CC(C)C[C@H](NC(=O)[C@H](CC(C)C)NC(=O)[C@H](CCCNC(=N)N)NC(=O)[C@H](Cc1c[nH]cn1)NC(=O)[C@H](CC(C)C)NC(=O)[C@H](CCCNC(=N)N)NC(=O)[C@H](CCCNC(=N)N)NC(=O)[C@H](Cc1c[nH]c2ccccc12)NC(=O)[C@H](CC(C)C)NC(=O)[C@H](CCCNC(=N)N)NC(=O)[C@H](Cc1c[nH]c2ccccc12)NC(=O)[C@H](CC(C)C)NC(=O)[C@H](CC(C)C)NC(=O)[C@H](Cc1c[nH]cn1)NC(=O)[C@H](Cc1c[nH]c2ccccc12)NC(=O)[C@H](CC(C)C)NC(=O)[C@@H](N)CCCNC(=N)N)C(=O)N[C@@H](CCCNC(=N)N)C(=O)N[C@@H](CS)C(N)=O | human red blood cells | – | – | pH 7.4 | relative to: Triton X-100 | EC50 | > 100 µM
CN1CCN(C2(CNC3CCN(c4cccc(-c5cc6cc(F)ccc6[nH]5)c4)CC3)CCC2)CC1 | NCI-H522 | – | – | – | – | GI50 | 1.72 µM
C/C=C(/C)C(=O)O[C@H]1C(C)=C2[C@H]([C@@H]1OC(=O)CCCCCCC)[C@@](C)(OC(C)=O)C[C@H](OC(=O)CCC)[C@@]1(O)[C@H]2OC(=O)[C@@]1(C)O | HEK293T | RNA-seq, measured: SLC1A4 mRNA | – | 10 µM, 6 h | relative to: vehicle | log2 fold change | 2.65

Some of these lines once more:
Structure (SMILES) | cell line | assay | test system | setting | how to read | measurement | value
Cc1sc2c(c1C)C(c1ccc(Cl)cc1)=N[C@@H](CC(N)=O)c1nnc(C)n1-2 | HBL-1 | – | – | 0.1 µM, 120 h | – | viability | 61.1%
COc1c(CCC[P+](c2ccccc2)(c2ccccc2)c2ccccc2)cc2c(c1OC)OCO2.[I-] | NCI-H23 | SRB | – | – | – | GI50 | -5.66 log M
